Measured values gathered from unrelated publications.
Every numbered part comes from another study and shows a few of its results, in no order.

Block 1
Target: Ras GTPase-activating protein-binding protein 1, RRM domain (G3BP1, Homo sapiens, UniProt Q13283)
UniProt Q13283, sequence (whole entry, looked up): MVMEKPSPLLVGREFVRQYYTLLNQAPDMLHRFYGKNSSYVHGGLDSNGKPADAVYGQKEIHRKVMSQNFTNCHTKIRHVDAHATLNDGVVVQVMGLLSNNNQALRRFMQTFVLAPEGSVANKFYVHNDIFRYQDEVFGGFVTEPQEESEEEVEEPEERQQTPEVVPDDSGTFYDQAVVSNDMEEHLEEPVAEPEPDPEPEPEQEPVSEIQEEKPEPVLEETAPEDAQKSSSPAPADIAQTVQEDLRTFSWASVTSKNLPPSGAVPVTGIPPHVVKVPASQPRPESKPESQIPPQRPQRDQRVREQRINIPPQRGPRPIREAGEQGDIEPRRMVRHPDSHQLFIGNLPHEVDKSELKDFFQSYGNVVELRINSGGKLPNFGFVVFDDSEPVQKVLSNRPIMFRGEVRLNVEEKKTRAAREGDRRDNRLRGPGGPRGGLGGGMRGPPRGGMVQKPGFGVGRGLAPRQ
Technique: RNA Bind-n-Seq
Form: RNA
Matrix: in vitro
Concentration: 1 µM
Notes: whole 134-nt RNA, ends assumed
With: 150 mM KCl
Baseline: input library
Reading: higher = stronger binding
Quantity: log2 enrichment
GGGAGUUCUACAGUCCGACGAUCUAAGGAUUCUAUCUGCUUACUGCUACAGACCUAUGUGUUAAGGAAUUCUUCUCCUCCUCCUUGCGUAGAAGUUGAUCAGCACUGUGGUCAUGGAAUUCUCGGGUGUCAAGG: -0.226
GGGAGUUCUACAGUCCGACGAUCAGUCCUGUGCUACACAUCGUAUGUACCGAAUCGGGUUUUGGUUUUGGGGUUUUGGGGAAAGUAUUAUGUUACGCCGUUCGGAUCUGCACUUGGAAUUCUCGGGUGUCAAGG: -0.0112
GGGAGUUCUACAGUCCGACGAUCUCCUCAAGUCCUGUGCUACACAUCGUAUGUACCGAAUCGGAGGGAGGAGGGAAAGUAUUAUGUUACGCCGUUCGGAUCUGCACUUCCAGCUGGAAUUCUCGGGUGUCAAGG: -0.233
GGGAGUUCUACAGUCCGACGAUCAGCAUGCAGGUGGGCAUCUUUGGGAAGUGGGGCAAGGGGGGGAUAGGGAGGGGGGUAACACUUUGGGAACAGGUGGUCCCAGGUCGUUUCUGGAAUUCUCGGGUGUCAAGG: -0.566
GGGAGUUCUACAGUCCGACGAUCUGGCCCUGGUGGCAUGCGGGGAGGAAGAGGUCGCCUCAUGGAUCGUGGUGGUCCCGGUGGAAUGUUCAGAGGUGGCCGUGGUGGAGACAGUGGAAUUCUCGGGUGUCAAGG: 0.754
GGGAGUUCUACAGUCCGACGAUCAAGUCCUGUGCUACACAUCGUAUGUACCGAAUCGGGAAAAAGGGUGGGUUUUUGGGAAAGUAUUAUGUUACGCCGUUCGGAUCUGCACUUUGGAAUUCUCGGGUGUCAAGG: 0.784
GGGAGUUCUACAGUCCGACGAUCUUGUUUGAAACAGCAACGCUUCGGUCAGGGUAUCUUUUACCAGACACUAAAGCAUAUGGAGAUAGAAUAGAAAGAAUGCUUCGCCUCAGUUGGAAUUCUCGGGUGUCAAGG: -0.165
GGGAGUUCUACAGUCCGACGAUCGCAGGAAGUAAAAACAAAUGGAAAUGCUUCGGAUAGUGGCAGGGGUGGCGGUUGCUAAGGAAAGGGUGGGAUGGGAGUGGGUAAAGAGUUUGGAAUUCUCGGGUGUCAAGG: 1.18
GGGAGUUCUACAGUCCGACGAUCAAGUCCUGUGCUACACAUCGUAUGUACCGAAUCGGUUUGGAAAAAAAGGUUUUUGGAAAGUAUUAUGUUACGCCGUUCGGAUCUGCACUUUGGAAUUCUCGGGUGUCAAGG: -0.326

Block 2
Target: RNA binding protein fox-1 homolog 2, RRM domain, GST-SBP tag (RBFOX2, Homo sapiens, UniProt O43251-10, residues 100-194)
Technique: RNA Bind-n-Seq
Form: RNA
Matrix: in vitro
Concentration: 365 nM
Notes: natural RNA segment, single round, ends assumed
Baseline: no-protein control
Reading: higher = stronger binding
Quantity: RBNS enrichment (R)
Residues (chain): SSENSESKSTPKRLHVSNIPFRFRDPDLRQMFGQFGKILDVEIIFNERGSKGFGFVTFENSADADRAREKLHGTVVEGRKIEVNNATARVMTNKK
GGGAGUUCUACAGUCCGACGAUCAAAUAUUUAAAGUCUCCAAAAUAAAACACCCCAACGUUGACCUUACCCGGCUGAUGGUUAGCCCCUUGCUGCCUGCUCCAUGUGUCUUAUGAGAGCCCGUAGUUACAGUGUGGAAUUCUCGGGUGCCAA: 0.473
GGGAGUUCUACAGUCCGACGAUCAGAAAAACUGCCAAGUUGUUUGGCAAGUGAUUGUUCUGAAAUACCUUGCAAGAUACCGAUAUUCAAGCUGUUGACAUACUCGUUGCCUACUUUAACAACUGUCAGAGAAAUGGAAUUCUCGGGUGCCAA: 0.42
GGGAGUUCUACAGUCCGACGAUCCUGUCGUCAGGGAAGCCCGUGAUCGCUCGUUUUCAGGGGUCUUACCGGUCAGCAACCUUGGCAUUGAUACAUAGGCACUCUACAGAAUUUAAGUUUUCAGAGGUAAGUCUUGGAAUUCUCGGGUGCCAA: 1.82
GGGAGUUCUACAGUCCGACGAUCUUCCUUACAUUAUAAAAUAAAAGCAGUGAAGUAAAUUGACAGCUAAGGAUCUCUAUUUCAUCUCUUGAACGAUGAAAAUAGUGACGUAUAUAUAGUACUUCUAUAAAUAAUGGAAUUCUCGGGUGCCAA: 0.47
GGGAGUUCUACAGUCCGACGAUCGGAUUUUUUUAUACGGUUUUCAUUGACACUCUUCCCUCCUCCCACCUGCCACCAGGCCUCACCAAAGCCCACUGCCAUGGGGCCAUCUGGGCCAUUCAGAGACUGGAGUGUGGAAUUCUCGGGUGCCAA: 0.243
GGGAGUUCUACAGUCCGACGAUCUGCAAGUUGACUCUGGUUAUGCAAGAAUGUGUAACAGAUCAAGAGAUCCUCUCAAGUGUCUAUUAGAUAGGCAAUAAGAACUGCAGUGUAGCUGGGAAGCAUCUUUUAGCUGGAAUUCUCGGGUGCCAA: 3.03
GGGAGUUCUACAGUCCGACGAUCGUCUCAGAGAAAACAAAUGAGUUACUCUCUCGGACAAGCUGUAGGUCCUACCUAAAUGUCCAGCAGGACAUUAGACAGUCGUACAGGGUACAGAAUAAUUCUUCGUUGUGUGGAAUUCUCGGGUGCCAA: 0.231
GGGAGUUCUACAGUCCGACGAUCCCCUGGGUAGCAGACGGCUGCUGCCCUUCUCUGGGCAUGUUCUGAAUGUUUACACUGGUACCUUCUGGUAUCUUCUUUAGAGCCCCCUGCAAGCUGCAACUCUAGGCUUUUGGAAUUCUCGGGUGCCAA: 0.484

Block 3
Target: PABPC1L2, full length, GST fusion (mouse, UniProt A0ABA7IW68)
Technique: RNAcompete
Form: RNA
Matrix: in vitro
Concentration: 20 nM
Notes: 7-mer, probes averaged, single round
Baseline: mean of 7-mers
Reading: higher = stronger binding
Quantity: 7-mer Z-score
Construct (chain): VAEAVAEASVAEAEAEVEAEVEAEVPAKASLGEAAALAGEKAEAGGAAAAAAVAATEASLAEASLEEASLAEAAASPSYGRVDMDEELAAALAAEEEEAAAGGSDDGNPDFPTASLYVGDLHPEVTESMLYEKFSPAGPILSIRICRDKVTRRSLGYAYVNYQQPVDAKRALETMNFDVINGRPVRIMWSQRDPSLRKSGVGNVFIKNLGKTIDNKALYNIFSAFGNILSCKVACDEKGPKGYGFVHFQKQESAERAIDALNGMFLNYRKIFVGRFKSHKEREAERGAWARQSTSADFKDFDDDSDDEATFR
GAAAUAU: 1.19
CCCGCAC: -0.389
GCUACAU: -0.177
CACGGGA: 0.0587
AGCCACC: -0.0935
ACGGAGG: 0.119
UCGAAUG: -0.231
AAGUUGC: 0.14
UCACUCC: -0.262
CCGCACA: -0.248
UGACGCA: -0.112
ACCCGGU: -0.188
UUAAAAU: 1.46
AAUGUUG: -0.0554
CAUUAUG: -0.0718
UCCCGAG: -0.235
CUCGCCC: -0.467
CCGUACC: -0.338
CCGGAUA: 0.00254
AUUGGGA: 0.372
UCGUUUA: -0.487
CUUAUAG: -0.168
CUGCUUU: -0.369
GCGCGCU: -0.295
GACAUUU: -0.253

Block 4
Target: Interferon regulatory factor 7, full length, phosphomimetic (IRF7, Homo sapiens, UniProt Q92985, residues 1-503, S471D/S472D/S475D/S476D/S477D/S483D/S484D/S487D)
Technique: protein-binding microarray
Form: double-stranded DNA, one strand shown
Matrix: in vitro
Concentration: 2200 nM top
Notes: 60-bp whole probe
With: salmon DNA 0.4 mg/ml
Baseline: random background probes
Reading: higher = stronger binding
Quantity: fitted relative affinity
Constant ends, left off below: GCCTAGCAC … GTCTTGATTCGCTTGACGCTGCTG
Residues (chain): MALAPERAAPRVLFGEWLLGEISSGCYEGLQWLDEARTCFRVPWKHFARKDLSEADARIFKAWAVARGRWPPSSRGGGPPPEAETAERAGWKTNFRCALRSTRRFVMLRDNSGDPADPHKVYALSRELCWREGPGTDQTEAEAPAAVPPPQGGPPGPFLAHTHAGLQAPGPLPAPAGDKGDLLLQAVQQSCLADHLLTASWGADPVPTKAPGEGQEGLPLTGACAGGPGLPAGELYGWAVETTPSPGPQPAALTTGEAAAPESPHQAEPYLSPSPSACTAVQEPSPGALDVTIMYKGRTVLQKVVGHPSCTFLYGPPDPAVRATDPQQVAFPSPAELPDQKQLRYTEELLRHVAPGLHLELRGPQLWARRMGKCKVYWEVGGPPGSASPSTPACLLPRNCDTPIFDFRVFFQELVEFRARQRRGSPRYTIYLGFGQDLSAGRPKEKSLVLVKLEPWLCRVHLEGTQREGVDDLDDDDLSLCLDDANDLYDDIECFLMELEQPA
TCATGATTGGTTGAACAACTGTGCTAG: 0.307 z-score
TCATGGATGTGTTTTAAACTGTGCTAG: 0.395 z-score
TTAGATCTCAGTACCGATTAGTGCTAG: 0.339 z-score
TCATTTTTGCTTTCTTTACTGTGCTAG: 4.98 z-score
TTTGGTATCCTTCTCCTTTAGTGCTAG: 2.02 z-score
GACGGACTGGGATTGGGGACGTGCTAG: -0.599 z-score
GTAGATTTCAGTATCGATTAGTGCTAG: 0.954 z-score
TTAGGTTTCGACTTTCAGTTAGTGCTA: 7.06 z-score
GACGGCTTCGGGTTTCGGGACGTGCTA: 1.38 z-score
GGAAATTCCAAGTTCATGGGGTGCTAG: -0.00742 z-score
GTTGTACTTTCTATCTCTGTGTGCTAG: 4.82 z-score
TCAGTCTTCCCTTTTAAACTGTGCTAG: 1.92 z-score
TGAGGTTTCGGGTTTCGGTTAGTGCTA: 10.7 z-score
TCGAGTCTGCAACATGGGACTGTGCTA: 0.694 z-score
GACGGTTTCGACTAACGGGACGTGCTA: 3.31 z-score
GACGGTATCGGTATCGGGTCGTGCTAG: 0.583 z-score
GACGGTATCGACACTGGGGCCGTGCTA: -0.591 z-score

Some of these lines once more (block 4):
TGAGGTTTCGGGTTTCGGTTAGTGCTA: 10.7 z-score
TTAGGTTTCGACTTTCAGTTAGTGCTA: 7.06 z-score
GACGGCTTCGGGTTTCGGGACGTGCTA: 1.38 z-score
TCGAGTCTGCAACATGGGACTGTGCTA: 0.694 z-score
GGAAATTCCAAGTTCATGGGGTGCTAG: -0.00742 z-score
TCATGATTGGTTGAACAACTGTGCTAG: 0.307 z-score
TCATGGATGTGTTTTAAACTGTGCTAG: 0.395 z-score
